Published values pooled from the literature.
Numbered parts are unrelated; each lists some results of a single study.
Chain of UniProt Q9ZTX9 (whole entry, looked up): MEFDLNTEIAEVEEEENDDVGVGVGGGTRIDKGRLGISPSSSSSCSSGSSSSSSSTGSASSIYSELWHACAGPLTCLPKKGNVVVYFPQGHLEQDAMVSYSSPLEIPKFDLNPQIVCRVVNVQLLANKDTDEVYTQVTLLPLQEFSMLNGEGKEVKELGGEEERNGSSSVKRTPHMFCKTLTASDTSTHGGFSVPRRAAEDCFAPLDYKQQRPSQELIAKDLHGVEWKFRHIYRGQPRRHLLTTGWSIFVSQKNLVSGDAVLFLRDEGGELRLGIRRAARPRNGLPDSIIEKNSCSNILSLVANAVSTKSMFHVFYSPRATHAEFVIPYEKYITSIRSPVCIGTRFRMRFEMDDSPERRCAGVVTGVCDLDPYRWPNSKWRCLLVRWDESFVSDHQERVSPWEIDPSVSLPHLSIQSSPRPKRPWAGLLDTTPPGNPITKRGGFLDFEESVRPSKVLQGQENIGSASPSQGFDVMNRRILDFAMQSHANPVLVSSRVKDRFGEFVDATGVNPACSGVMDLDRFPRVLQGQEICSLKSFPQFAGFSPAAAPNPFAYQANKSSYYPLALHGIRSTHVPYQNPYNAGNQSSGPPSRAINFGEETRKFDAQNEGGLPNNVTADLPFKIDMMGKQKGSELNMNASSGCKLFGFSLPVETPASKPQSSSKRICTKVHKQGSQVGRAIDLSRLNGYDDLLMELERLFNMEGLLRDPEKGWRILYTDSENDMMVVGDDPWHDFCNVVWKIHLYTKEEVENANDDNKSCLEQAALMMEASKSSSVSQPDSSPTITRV
Chain of UniProt O23661 (whole entry, looked up): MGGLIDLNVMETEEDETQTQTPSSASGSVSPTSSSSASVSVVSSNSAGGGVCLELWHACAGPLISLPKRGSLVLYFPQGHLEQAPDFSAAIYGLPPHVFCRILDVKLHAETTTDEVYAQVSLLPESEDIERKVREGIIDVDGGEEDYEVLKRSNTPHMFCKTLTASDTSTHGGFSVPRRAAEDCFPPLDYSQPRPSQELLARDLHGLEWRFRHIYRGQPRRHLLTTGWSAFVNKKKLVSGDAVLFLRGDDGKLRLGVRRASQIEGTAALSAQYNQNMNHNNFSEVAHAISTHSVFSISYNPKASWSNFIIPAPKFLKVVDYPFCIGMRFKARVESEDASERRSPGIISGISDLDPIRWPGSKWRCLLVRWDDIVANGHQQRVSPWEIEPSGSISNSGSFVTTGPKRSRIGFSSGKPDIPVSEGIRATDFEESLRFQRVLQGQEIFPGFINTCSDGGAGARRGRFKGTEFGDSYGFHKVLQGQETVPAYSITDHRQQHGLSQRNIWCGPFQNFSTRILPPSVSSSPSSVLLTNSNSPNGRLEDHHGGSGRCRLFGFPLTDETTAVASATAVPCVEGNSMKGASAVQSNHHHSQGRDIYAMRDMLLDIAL
Chain of UniProt P48730 (whole entry, looked up): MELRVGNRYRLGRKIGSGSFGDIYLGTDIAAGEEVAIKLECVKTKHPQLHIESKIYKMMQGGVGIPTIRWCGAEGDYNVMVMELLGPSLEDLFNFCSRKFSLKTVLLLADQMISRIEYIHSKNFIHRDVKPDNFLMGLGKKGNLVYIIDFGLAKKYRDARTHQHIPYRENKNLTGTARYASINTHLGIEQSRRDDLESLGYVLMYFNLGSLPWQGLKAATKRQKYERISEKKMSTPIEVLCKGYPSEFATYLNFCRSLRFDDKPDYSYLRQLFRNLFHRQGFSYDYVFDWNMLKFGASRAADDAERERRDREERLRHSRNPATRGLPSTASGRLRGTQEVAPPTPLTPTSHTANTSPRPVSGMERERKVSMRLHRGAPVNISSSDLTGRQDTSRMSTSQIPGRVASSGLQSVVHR
Chain of UniProt Q9XFM0 (whole entry, looked up): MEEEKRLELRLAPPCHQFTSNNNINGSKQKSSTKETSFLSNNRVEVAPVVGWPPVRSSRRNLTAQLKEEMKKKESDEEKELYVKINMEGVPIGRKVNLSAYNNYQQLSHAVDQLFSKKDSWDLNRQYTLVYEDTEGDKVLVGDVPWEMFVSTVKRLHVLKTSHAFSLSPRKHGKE
Chain of UniProt P35368 (whole entry, looked up): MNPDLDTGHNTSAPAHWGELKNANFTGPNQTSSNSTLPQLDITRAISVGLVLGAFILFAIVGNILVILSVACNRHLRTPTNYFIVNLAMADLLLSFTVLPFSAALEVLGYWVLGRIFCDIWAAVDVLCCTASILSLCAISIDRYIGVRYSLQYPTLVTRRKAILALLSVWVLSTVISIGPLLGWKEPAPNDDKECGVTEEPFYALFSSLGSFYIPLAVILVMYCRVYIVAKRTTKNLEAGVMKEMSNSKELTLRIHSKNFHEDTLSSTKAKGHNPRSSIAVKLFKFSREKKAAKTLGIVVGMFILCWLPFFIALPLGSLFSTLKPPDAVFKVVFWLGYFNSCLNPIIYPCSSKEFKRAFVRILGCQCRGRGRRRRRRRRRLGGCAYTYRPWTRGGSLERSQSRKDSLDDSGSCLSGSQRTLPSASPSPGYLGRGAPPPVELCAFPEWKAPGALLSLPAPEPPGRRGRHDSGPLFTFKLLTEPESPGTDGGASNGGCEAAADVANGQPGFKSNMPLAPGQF
Chain of UniProt Q9FGV1 (whole entry, looked up): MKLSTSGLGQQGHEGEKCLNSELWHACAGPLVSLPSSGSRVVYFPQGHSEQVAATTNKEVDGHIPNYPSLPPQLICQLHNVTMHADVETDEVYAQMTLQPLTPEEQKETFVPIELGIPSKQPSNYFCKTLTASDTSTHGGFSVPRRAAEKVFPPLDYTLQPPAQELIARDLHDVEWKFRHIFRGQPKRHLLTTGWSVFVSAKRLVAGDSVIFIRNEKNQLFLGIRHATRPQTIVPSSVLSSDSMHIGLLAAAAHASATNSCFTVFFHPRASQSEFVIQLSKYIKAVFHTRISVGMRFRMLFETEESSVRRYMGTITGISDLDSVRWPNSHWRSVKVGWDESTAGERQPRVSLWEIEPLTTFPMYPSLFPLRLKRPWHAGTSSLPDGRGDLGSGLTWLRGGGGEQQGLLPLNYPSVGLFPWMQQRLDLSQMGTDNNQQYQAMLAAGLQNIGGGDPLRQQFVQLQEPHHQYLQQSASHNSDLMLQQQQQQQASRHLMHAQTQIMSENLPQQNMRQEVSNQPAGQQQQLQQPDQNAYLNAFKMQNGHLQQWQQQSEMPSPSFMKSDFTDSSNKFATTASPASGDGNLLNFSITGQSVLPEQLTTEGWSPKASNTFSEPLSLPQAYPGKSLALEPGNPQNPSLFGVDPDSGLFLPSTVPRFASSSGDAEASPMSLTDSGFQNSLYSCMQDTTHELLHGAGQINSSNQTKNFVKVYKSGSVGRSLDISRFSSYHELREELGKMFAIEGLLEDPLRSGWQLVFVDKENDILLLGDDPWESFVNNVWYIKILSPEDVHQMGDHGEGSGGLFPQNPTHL
Chain of UniProt Q9C5X0 (whole entry, looked up): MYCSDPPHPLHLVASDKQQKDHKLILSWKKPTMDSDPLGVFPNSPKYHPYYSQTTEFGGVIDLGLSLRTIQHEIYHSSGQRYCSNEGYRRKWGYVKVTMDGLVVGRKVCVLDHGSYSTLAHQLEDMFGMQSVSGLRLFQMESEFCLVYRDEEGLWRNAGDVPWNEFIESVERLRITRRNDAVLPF
Chain of UniProt O24408 (whole entry, looked up): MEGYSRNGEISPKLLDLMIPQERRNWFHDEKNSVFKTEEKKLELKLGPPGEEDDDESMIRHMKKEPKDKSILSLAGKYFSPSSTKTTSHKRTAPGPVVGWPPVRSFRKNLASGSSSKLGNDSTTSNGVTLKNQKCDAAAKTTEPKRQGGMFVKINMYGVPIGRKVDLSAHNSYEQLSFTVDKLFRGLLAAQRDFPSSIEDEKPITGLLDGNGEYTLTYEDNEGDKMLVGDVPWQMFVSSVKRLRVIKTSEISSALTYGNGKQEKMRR
Chain of UniProt Q8H174 (whole entry, looked up): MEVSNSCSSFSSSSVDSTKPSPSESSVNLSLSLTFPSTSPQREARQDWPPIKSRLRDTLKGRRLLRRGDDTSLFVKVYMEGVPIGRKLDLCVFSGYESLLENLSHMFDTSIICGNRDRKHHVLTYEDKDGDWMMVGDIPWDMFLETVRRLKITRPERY

Study 1
Target: Prothrombin, mature alpha-thrombin (F2, Homo sapiens, UniProt P00734)
Technique: aptamer microarray, sandwich
Molecule type: DNA with 2'F-ANA
Matrix: in vitro
Tested at: 200 nM
Notes: whole 15-mer aptamer, many near background
Added: Cy3 exosite-II aptamer, 400 nM
Reading: higher = stronger binding
Strand: GGTTGGTGTGGTTGG
`2'F-ANA at 2 3 7 12 14` — result for “mean fluorescence intensity”: 553 a.u.
`2'F-ANA at 1 2 3 4 5 6 7 8 11 12 15` — result for “mean fluorescence intensity”: 91.1 a.u.
For `2'F-ANA at 1 3 5 6 7 9 12 13 15`, “mean fluorescence intensity” read 114 a.u.
`2'F-ANA at 1 2 6 8 11 12 13` — result for “mean fluorescence intensity”: 235 a.u.
For `2'F-ANA at 3 4 5 6 10 12 13 15`, “mean fluorescence intensity” read 53.1 a.u.
`2'F-ANA at 2 6 8 9 11 12 15` — result for “mean fluorescence intensity”: 499 a.u.
For `2'F-ANA at 1 3 5 7 9 10 12 13 15`, “mean fluorescence intensity” read 47.2 a.u.
`2'F-ANA at 2 3 4 6 10 11 14` — result for “mean fluorescence intensity”: 160 a.u.

Study 2
Molecule: B1 (IAA5)
Technique: two-hybrid
Reading: higher = firmer interaction
B1: IAA5 (Arabidopsis thaliana, UniProt P33078); chain MANESNNLGLEITELRLGLPGDIVVSGESISGKKRASPEVEIDLKCEPAKKSQVVGWPPVCSYRRKNSLERTKSSYVKVSVDGAAFLRKIDLEMYKCYQDLASALQILFGCYINFDDTLKESECVPIYEDKDGDWMLAGDVPWEMFLGSCKRLRIMKRSCNRG
It gave 4 for positive tests (IAA31 (Arabidopsis thaliana, UniProt Q8H174); baseline: out of 4 tests).
For ARF8 699-811 (Arabidopsis thaliana, UniProt Q9FGV1); baseline: out of 2 tests: positive tests read 1.
For IAA18 (Arabidopsis thaliana, UniProt O24408); baseline: out of 2 tests: positive tests read 2.
It gave 4 for positive tests (IAA19 (Arabidopsis thaliana, UniProt O24409); baseline: out of 4 tests).
For ETT (Arabidopsis thaliana, UniProt O23661); baseline: out of 4 tests: positive tests read 0.
IAA34 (Arabidopsis thaliana, UniProt Q9C5X0); baseline: out of 4 tests — positive tests: 4.
For IAA28 (Arabidopsis thaliana, UniProt Q9XFM0); baseline: out of 4 tests: positive tests read 4.
The positive tests was 2 (ARF4 660-788 (Arabidopsis thaliana, UniProt Q9ZTX9); baseline: out of 4 tests).

Further values, each from its own experiment
CHTOP: CHTOP (Homo sapiens, UniProt Q9Y3Y2)
Under interaction screen, `STXBP5 (Homo sapiens, UniProt Q5T5C0)` is recorded as “cross-linked” (AP2M1 (Homo sapiens, UniProt Q96CW1); cross-linking MS; hits only).
`COc1cccc(NC(=O)c2nc3scc(CN(C)Cc4ccccc4)c3c(=O)[nH]2)c1` has an inhibition of 12.9% (Alpha-1B adrenergic receptor (ADRA1B, Homo sapiens, UniProt P35368); ligand displacement; 10 µM).
For `REV3L (Homo sapiens, UniProt O60673)`, interaction screen read “cross-linked” (H1-4 (Homo sapiens, UniProt P10412); cross-linking MS; hits only).
`Oc1cccc(-c2nc(N3CCOCC3)c3oc4ncccc4c3n2)c1` has a remaining activity of 91.3% (Casein kinase I isoform delta (CSNK1D, Homo sapiens, UniProt P48730); enzyme activity, inhibitor; 0.5 µM; baseline: control).
`POLDIP3 (Homo sapiens, UniProt Q9BY77)` — result for cross-linked residues: “K144 to K81” (CHTOP; cross-linking MS; cell fractions; added: DSSO).
`DDX39B (Homo sapiens, UniProt Q13838)` — result for cross-linked residues: “K188 to S225” (CHTOP; cross-linking MS; cell fractions; added: DSSO).

Repeated from above (further values, each from its own experiment):
Under interaction screen, `STXBP5 (Homo sapiens, UniProt Q5T5C0)` is recorded as “cross-linked” (AP2M1 (Homo sapiens, UniProt Q96CW1); cross-linking MS; hits only).
`COc1cccc(NC(=O)c2nc3scc(CN(C)Cc4ccccc4)c3c(=O)[nH]2)c1` has an inhibition of 12.9% (Alpha-1B adrenergic receptor (ADRA1B, Homo sapiens, UniProt P35368); ligand displacement; 10 µM).
For `REV3L (Homo sapiens, UniProt O60673)`, interaction screen read “cross-linked” (H1-4 (Homo sapiens, UniProt P10412); cross-linking MS; hits only).
